Assay results pooled from the literature.
A part holds a random share of what one study measured.
Chain of UniProt P52333 (whole entry, looked up): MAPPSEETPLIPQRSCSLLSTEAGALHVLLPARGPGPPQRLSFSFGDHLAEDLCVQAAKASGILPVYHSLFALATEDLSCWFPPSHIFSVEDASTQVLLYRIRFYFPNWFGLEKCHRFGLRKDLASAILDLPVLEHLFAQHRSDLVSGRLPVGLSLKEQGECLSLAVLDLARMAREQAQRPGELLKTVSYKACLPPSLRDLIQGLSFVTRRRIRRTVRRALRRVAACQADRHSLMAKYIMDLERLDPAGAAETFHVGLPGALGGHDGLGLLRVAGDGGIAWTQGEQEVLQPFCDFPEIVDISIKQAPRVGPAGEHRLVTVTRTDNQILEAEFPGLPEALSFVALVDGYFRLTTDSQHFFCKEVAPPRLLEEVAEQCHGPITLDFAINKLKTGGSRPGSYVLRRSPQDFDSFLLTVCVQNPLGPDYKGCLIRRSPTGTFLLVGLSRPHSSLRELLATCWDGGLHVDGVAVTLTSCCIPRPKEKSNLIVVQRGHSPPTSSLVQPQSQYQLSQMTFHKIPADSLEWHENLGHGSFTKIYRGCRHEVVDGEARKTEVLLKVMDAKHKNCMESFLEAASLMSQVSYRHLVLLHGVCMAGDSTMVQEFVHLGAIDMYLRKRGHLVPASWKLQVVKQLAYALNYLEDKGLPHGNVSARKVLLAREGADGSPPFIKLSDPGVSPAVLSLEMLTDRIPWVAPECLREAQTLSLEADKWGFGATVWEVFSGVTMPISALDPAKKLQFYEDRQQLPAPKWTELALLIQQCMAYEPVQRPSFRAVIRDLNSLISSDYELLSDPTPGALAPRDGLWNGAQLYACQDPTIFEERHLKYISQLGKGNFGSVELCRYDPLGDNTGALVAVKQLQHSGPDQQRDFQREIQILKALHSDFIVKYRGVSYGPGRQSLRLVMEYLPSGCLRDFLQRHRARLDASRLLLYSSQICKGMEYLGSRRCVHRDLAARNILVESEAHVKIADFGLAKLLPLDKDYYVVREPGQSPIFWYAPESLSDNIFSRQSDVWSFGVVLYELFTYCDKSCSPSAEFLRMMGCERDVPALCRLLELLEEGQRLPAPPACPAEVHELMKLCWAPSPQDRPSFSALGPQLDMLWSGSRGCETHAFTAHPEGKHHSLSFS
Chain of UniProt P11802 (whole entry, looked up): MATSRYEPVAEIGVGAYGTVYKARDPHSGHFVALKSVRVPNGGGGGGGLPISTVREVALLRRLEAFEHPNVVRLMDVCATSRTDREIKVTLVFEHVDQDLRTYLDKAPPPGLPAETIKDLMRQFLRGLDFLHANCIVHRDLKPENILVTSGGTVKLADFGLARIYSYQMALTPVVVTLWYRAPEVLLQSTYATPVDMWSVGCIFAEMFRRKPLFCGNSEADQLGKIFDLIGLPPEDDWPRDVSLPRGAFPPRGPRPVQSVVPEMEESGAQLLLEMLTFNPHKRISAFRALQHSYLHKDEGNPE
Chain of UniProt P09619 (whole entry, looked up): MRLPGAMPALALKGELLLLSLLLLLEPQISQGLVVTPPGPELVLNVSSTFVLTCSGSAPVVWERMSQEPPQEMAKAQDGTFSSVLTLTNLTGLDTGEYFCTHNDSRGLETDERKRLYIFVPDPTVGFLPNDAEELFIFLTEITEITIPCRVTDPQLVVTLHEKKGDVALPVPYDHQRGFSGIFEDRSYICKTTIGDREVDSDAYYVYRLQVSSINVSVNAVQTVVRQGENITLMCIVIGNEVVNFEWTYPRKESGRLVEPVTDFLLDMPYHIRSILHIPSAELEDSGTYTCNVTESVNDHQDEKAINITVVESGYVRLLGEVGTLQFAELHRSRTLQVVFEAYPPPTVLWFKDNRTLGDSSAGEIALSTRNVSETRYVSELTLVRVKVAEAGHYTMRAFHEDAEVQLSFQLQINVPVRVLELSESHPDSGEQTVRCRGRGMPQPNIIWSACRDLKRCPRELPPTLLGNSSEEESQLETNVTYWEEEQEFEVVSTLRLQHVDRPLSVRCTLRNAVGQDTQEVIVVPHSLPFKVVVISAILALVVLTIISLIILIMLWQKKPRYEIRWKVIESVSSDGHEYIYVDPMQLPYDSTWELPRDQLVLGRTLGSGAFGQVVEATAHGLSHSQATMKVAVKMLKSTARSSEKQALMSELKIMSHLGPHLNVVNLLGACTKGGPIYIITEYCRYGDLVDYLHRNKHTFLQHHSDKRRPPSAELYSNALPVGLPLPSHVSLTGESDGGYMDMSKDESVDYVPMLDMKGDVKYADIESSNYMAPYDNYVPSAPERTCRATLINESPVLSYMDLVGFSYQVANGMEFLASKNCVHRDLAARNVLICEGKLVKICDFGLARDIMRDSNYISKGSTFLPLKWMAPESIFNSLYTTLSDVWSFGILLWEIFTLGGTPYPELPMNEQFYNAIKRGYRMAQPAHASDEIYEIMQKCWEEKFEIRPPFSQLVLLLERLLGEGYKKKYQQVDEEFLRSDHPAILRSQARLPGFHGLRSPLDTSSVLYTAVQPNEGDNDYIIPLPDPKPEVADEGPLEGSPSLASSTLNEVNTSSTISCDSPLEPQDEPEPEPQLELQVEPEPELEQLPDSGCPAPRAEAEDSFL
Chain of UniProt P36896 (whole entry, looked up): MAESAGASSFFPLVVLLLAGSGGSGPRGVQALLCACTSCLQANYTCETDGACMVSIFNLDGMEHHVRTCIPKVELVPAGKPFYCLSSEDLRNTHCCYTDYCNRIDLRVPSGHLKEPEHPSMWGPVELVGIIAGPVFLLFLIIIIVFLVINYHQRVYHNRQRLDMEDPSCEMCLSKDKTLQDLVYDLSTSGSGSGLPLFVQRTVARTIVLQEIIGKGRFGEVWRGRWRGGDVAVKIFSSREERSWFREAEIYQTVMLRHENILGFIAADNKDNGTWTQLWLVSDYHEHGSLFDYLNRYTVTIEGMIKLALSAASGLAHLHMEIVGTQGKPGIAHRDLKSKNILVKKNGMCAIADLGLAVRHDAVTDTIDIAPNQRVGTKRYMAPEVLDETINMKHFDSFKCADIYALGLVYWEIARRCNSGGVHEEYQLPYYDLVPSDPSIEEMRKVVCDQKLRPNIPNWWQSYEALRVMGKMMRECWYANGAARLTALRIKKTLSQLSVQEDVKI
Chain of UniProt Q96PY6 (whole entry, looked up): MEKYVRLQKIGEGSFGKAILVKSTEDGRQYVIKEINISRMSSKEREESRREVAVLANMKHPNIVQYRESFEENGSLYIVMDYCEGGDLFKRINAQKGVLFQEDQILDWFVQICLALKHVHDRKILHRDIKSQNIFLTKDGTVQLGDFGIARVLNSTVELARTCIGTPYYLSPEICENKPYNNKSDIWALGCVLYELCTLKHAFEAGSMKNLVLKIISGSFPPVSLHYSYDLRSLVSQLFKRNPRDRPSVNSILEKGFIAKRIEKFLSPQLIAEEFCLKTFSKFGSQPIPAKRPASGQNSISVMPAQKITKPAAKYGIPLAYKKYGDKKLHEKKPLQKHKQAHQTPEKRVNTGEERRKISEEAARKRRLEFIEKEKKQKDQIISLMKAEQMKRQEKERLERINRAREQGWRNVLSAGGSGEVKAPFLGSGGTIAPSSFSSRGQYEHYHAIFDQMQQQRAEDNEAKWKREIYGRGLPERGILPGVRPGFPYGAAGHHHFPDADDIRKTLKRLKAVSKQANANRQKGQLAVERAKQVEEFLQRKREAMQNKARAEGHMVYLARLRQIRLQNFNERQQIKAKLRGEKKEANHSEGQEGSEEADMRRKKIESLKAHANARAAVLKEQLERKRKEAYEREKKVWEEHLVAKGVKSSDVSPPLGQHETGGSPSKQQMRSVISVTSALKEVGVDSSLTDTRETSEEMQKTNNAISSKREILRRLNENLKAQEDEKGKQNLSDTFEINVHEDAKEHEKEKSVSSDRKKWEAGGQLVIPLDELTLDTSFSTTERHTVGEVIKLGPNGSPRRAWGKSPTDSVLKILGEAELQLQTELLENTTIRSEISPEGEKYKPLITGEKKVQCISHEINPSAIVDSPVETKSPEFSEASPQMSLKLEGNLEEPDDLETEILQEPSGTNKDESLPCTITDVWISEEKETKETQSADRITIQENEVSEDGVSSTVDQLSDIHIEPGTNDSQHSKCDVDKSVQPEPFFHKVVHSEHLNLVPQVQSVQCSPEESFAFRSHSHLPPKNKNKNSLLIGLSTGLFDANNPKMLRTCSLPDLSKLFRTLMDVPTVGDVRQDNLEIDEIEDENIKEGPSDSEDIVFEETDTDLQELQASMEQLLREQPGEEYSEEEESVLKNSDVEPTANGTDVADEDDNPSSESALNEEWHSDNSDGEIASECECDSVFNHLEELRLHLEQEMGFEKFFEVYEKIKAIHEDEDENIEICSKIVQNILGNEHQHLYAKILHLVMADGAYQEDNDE
Chain of UniProt P60604 (whole entry, looked up): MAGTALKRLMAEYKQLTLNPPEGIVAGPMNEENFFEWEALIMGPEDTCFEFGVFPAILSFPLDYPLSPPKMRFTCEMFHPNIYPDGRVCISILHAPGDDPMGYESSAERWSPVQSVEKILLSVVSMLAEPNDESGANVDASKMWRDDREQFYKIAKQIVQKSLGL
Chain of UniProt P49841 (whole entry, looked up): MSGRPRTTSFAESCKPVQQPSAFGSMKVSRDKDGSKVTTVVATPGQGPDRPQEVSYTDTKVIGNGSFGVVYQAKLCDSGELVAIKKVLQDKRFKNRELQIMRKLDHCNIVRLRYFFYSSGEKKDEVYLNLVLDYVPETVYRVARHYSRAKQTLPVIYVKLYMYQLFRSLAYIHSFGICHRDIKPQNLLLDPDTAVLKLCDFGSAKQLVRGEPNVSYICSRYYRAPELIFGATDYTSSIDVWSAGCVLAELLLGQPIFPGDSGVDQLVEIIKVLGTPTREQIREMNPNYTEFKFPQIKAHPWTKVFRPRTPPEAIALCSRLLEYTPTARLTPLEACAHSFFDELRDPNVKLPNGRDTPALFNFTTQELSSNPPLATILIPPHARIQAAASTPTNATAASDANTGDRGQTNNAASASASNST
Chain of UniProt Q15819 (whole entry, looked up): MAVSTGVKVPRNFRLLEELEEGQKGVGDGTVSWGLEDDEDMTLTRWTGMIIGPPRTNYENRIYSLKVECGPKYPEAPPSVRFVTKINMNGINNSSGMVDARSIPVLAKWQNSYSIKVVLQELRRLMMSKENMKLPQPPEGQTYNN

Set 1
Structure (SMILES): CN(c1ccnc(CNc2nc(Nc3ccc4c(c3)CC(=O)N4)ncc2C(F)(F)F)n1)S(C)(=O)=O
Method: competition with immobilised ligand
Concentration: 1 µM
target | test | remaining binding
Tyrosine-protein kinase JAK3, JH1 (JAK3, Homo sapiens, UniProt P52333) | cell-free assay | 1.9%
Calcium/calmodulin-dependent protein kinase kinase 2 (CAMKK2, Homo sapiens, UniProt Q96RR4) | cell-free assay | 69%
Receptor tyrosine-protein kinase erbB-4 (ERBB4, Homo sapiens, UniProt Q15303) | cell-free assay | 46%
Ephrin type-A receptor 1 (EPHA1, Homo sapiens, UniProt P21709) | cell-free assay | 86%
Platelet-derived growth factor receptor beta (PDGFRB, Homo sapiens, UniProt P09619) | cell-free assay | 69%
Cyclin-G-associated kinase (GAK, Homo sapiens, UniProt O14976) | cell-free assay | 66%
Receptor-type tyrosine-protein kinase FLT3 (FLT3, Homo sapiens, UniProt P36888) | cell-free assay | 23%
Dual serine/threonine and tyrosine protein kinase (DSTYK, Homo sapiens, UniProt Q6XUX3) | cell-free assay | 53%
Mast/stem cell growth factor receptor Kit (KIT, Homo sapiens, UniProt P10721, D816H) | cell-free assay | 44%
Myosin-IIIb (MYO3B, Homo sapiens, UniProt Q8WXR4) | binding | 68%
Serine/threonine-protein kinase N2 (PKN2, Homo sapiens, UniProt Q16513) | cell-free assay | 22%
Death-associated protein kinase 3 (DAPK3, Homo sapiens, UniProt O43293) | cell-free assay | 33%
Cyclin-dependent kinase 14 (CDK14, Homo sapiens, UniProt O94921) | cell-free assay | 86%
Ribosomal protein S6 kinase alpha-3, C-terminal kinase domain (RPS6KA3, Homo sapiens, UniProt P51812) | cell-free assay | 85%
Cyclin-dependent kinase 15 (CDK15, Homo sapiens, UniProt Q96Q40) | cell-free assay | 63%
Cyclin-dependent kinase 4, with cyclin D3 (CDK4, Homo sapiens, UniProt P11802) | cell-free assay | 63%

Set 2
Target: TAR DNA-binding protein 43, full length, His tag (TARDBP, Homo sapiens, UniProt Q13148, residues 1-414)
Method: RNA Bind-n-Seq
Molecule type: RNA
Matrix: in vitro
Concentration: 20 nM
Notes: 6-mer, flanks averaged, single round
Together with: 150 mM KCl
Baseline: input library
Direction: higher = stronger binding
Strand | 6-mer enrichment (R)
UUAAUA | 0.64
GAUACA | 0.675
GGCGGG | 9.71
CUUCAC | 0.562
GUGCCA | 0.905
GCGGGU | 4.25
CCAGUU | 0.633
AUAUCC | 0.558

Set 3
SMILES: N#C/C(=C\c1ccc(O)c(O)c1)C(=O)NCc1ccccc1
Effect on: enzyme activity
Mode: inhibitor
Concentration: 0.5 µM
Baseline: control
target | remaining activity [%]
Serine/threonine-protein kinase Nek1 (NEK1, Homo sapiens, UniProt Q96PY6) | 97.3
Tyrosine-protein kinase JAK3 (JAK3, Homo sapiens, UniProt P52333) | 97.2
MAP kinase-activated protein kinase 2 (MAPKAPK2, Homo sapiens, UniProt P49137) | 101
Mitogen-activated protein kinase 3 (MAPK3, Homo sapiens, UniProt P27361) | 106
Fibroblast growth factor receptor 1 (FGFR1, Homo sapiens, UniProt P11362) | 92.8
Glycogen synthase kinase-3 beta (GSK3B, Homo sapiens, UniProt P49841) | 106
Casein kinase I isoform gamma-2 (CSNK1G2, Homo sapiens, UniProt P78368) | 106
Fibroblast growth factor receptor 3 (FGFR3, Homo sapiens, UniProt P22607) | 98.2
Tyrosine-protein kinase Mer (MERTK, Homo sapiens, UniProt Q12866) | 89
Serine/threonine-protein kinase TBK1 (TBK1, Homo sapiens, UniProt Q9UHD2) | 98.3
Serine/threonine-protein kinase Nek6 (NEK6, Homo sapiens, UniProt Q9HC98) | 104
Activin receptor type-1B (ACVR1B, Homo sapiens, UniProt P36896) | 98

Set 4
Molecule: B1 (ZNRF3 RING domain)
Method: yeast two-hybrid
Matrix: yeast
Notes: mostly zero background
Baseline: not given
Direction: higher = stronger interaction
B1: ZNRF3 RING domain (UniProt Q9ULT6); chain DTLSSSSTSDCAICLEKYIDGEELRVIPCTHRFHRKCVDPWLLQHHTCPHCRHNIIEQKGNP
target | lacZ reporter activity
CDC34 UBC core domain (UniProt P49427) | 0
UBE2V2 UBC core domain (UniProt Q15819) | 0
UBE2Q2 UBC core domain (UniProt Q8WVN8) | 0
UBE2H UBC core domain (UniProt P62256) | 0
UBE2G2 UBC core domain (UniProt P60604) | 4450

For quick reference, copied from above (set 2):
Strand | 6-mer enrichment (R)
UUAAUA | 0.64
GAUACA | 0.675
CCAGUU | 0.633
GGCGGG | 9.71
AUAUCC | 0.558
